Published values of several laboratories.
Numbered parts are unrelated; each lists some results of a single study. Changes are numbered by the printed parent chain.

Study 1
Target: Histone acetyltransferase KAT6A, winged helix 1, GST fusion (KAT6A, Homo sapiens, UniProt Q92794, residues 1-85)
Technique: protein binding microarray
Form: double-stranded DNA, one strand shown
Matrix: in vitro
Concentration: not given
Notes: 8-mer, flanks averaged, mean of 2 arrays, mostly near background
Baseline: not given
Direction: higher = stronger binding
Target sequence (chain): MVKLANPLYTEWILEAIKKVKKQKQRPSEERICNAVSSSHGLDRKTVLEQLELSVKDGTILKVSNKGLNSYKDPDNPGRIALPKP
Strand	E-score
AAGGTAGC	-0.0525
AGATGTGC	-0.064
CTACAGCC	-0.0175
TAAGAGTA	-0.207
TATAATCA	-0.102
ACGAGTGG	-0.147
CCTTCCTA	-0.137
CCGGACAC	0.215
AGTGAGCC	-0.132
CGAGCCTA	-0.149
AGTATCCG	0.0569
ATGGTAGG	-0.171
AGGTTCTG	-0.0341
GGAAAAAA	0.023
CTCAATGC	0.0166
GTGCCCAC	-0.0193
AGCAGAAC	-0.13
CGCCGCGC	0.473
ATCAAGGC	-0.114
CAACGGGG	0.0804
CGCCCTAC	0.196
GAGTTTCC	-0.0158
CCGTTCAA	0.143
AAATCCTG	-0.286
ACTCGTTA	-0.0789

Study 2
Target: RNA binding protein fox-1 homolog 2, RRM domain, GST-SBP tag (RBFOX2, Homo sapiens, UniProt O43251-10, residues 100-194)
Technique: RNA Bind-n-Seq
Form: RNA
Matrix: in vitro
Concentration: 365 nM
Notes: natural RNA segment, single round, ends assumed
Baseline: no-protein control
Direction: higher = stronger binding
Shared flanks, not repeated: GGGAGUUCUACAGUCCGACGAUC … UGGAAUUCUCGGGUGCCAA
Residues (chain): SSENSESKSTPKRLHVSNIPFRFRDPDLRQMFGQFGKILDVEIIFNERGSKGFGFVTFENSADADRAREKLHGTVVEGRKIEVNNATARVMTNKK
Strand	RBNS enrichment (R)
CAGAGUCAGAACUGUACACAUCCCAAAAUUUGGUGGCCGUGGAACACAUUCCCGGUGAUAGAAUUGCUAAAUUGUCGUGAAAUAGGUUAGAAUUUUUCUUUAAAUUAUGG	0.67
AACCGCAGAAGAAAUGCAUUCACACAGUCGCAGAGAUGCAGGCCUUGCCAGUGGUGUGCCGGGCGCGGGUCCUGUCUGGCGGCGGCCUGUCGUCUCCAGGUGCUAACUCC	1.13
GGACUACAGGCGCCCACCACCACGCCCGGCUAAUUUUUUGUAUUUUUUAGUAGAGACGGGGUUUCACCAUGUUAGCCAGGAUGGUCUCGAUCUCCUGACCUCGUGAUCCG	0.346
GGUGCUGGUGGACCUGCGGCCCAAGGGCCUGGAUGGAGCUCGGGCUGAGCGGGUGCUAGAGCUUGUAUCCAUCACUGCCAACAAGAACACCUGUCCUGGAGACCGAAGUG	0.636
CCCUGGCAACCCUGAUUGAUUAUCUGAUCCUAUAAUUUUGCCUUUUCUAGAAUGUCAUAUAAAUGGAGUCACACUGAUGUCGCCUUUUGAGUCUGGCAUCUUUCCCUCAG	0.932
GUAAUUGGGAUUCCAACUAGAUAGUCAUUGGUGUGACCAUAAUAAAAACAAAAGCUAAAAUAAAAGCAUCAGAUUUAGACUGGCGCUGUGCCCUCUACCACUAUAUGCCA	0.635
CCAAAGCUUUGCUGUCAUCACAUAAAUGAAUUAAAUCACAUGUGAAAGGGAACACACCCAAUUUUAUGUUAAGGUGAAACCAGCAGUUUGCUUCUUUUAUUAGUAAUGUG	0.282
GCAACUCUCGGGCAGCCUGCCCAAGGGAGGGAGCAAGUUGCAAUUUAGAAGAUGCCAUACGUCGUGUGACAGCUCAUGAGCCUUUCACUGGGCUGGCAAUUGUCUGAACA	0.444
UUAUCGUGAGGAAAAAGAAACUUCCUUUUGUUCACAUUUAGGACUCUCAGUGCCAUAUGAAGUAGCAAAAGGCAGUAUCGGCCAGAUCAGUGUUACAUUGAUUCUAAAAU	0.283
AUCUAAUCUGAUCCUUCUUUACGUGUCUAAAUCAAGACUGUAUCCACAUUUUACCACGCGGCCAUACUUGCAGAAUGCAGACCCUAGUGGGCUGUACUGUAUGCACUUUG	0.288
CAGAUAAUUGUCUGACUUUUUUUAGUCUUAAGUAUAGAGGGAAUCCCCUAAAGGCUGAUCCAACUGCUUCUGUGGUUCCACGGUAUUUUUCAUGGUUCAUGUGAAACGUG	0.221
UGUGACCCUGGUGUGACUAAGCAUCAGGGGUGGGGUUGUAUAAGUUCAAAAGUGUGAAAUGUCUGAAGAUCAUAUUUUUUAUACAGGUAUUUCAAUUAAAUGUUUUGGUA	0.948

Study 3
Target: Sal-like protein 4, full length isoform B (SALL4, Homo sapiens, UniProt Q9UJQ4-2, residues 1-616)
Technique: universal PBM
Form: double-stranded DNA, one strand shown
Matrix: in vitro
Concentration: not given
Notes: 8-mer, flanks averaged, mean of replicates
Direction: higher = stronger binding
Target sequence (chain): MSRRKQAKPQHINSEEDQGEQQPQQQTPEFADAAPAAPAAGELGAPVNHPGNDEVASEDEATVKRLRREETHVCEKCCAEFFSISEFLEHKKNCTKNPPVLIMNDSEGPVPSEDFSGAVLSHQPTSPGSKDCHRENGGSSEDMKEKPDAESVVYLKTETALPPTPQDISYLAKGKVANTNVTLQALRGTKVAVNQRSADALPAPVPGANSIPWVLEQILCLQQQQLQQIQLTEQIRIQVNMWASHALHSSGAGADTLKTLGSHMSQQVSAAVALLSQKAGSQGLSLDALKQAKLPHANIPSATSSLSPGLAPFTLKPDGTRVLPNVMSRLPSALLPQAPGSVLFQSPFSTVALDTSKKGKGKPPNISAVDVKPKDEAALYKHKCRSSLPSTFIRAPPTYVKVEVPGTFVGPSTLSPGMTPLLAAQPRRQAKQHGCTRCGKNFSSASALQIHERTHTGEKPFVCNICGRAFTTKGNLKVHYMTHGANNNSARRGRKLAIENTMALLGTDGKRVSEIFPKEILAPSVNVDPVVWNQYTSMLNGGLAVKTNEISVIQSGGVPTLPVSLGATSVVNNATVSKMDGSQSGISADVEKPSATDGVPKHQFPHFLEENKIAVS
Strand	E-score
CATTAACG	0.117
GAAATAGA	0.22
ATCAAAGG	0.109
AGAATTGA	0.144
GAGATCAC	-0.179
CACAATGC	-0.0578
ATCCGGTG	-0.149
GTACTCGA	-0.0627
ATCATAGG	0.152
GAGCTTTA	0.0367
GCTTGCAC	-0.198
CCTCCCGA	-0.251
AGCTTTAC	0.0273
ATTGAGTA	0.263
CGGCCCTC	-0.322
CTTCGAAC	-0.274
ACGTCCGG	-0.279
AATGGGAA	0.14
GTTCTCAA	0.143
CCTTTCTC	0.0694
ACTTGTGC	-0.0052
AACTACTA	0.225
CTTTGCTA	0.115
ATCTCCCG	-0.149
ATCAGCCG	-0.243

Study 4
Target: BATF, bZIP domain (human)
Technique: DHFR protein complementation
Matrix: yeast
Notes: single substitutions, most at no-binding floor
Baseline: wild-type JUN-FOS pair
Direction: higher = stronger binding
Starting sequence: JUN, bZIP domain (human); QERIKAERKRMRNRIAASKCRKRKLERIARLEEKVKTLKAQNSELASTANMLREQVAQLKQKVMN; partner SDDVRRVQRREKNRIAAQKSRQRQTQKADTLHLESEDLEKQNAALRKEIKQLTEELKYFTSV
Variant	binding fitness [natural log]
N42T	-0.639
Q55L	-0.272
I28F	-0.0912
L52V	-0.508
E54S	-0.1
K36A	0.0756
T37M	0.15
A29V	-0.236
L59F	-0.128
T48M	-0.0309

Study 5
Target: Interferon regulatory factor 7, full length, phosphomimetic (IRF7, Homo sapiens, UniProt Q92985, residues 1-503, S471D/S472D/S475D/S476D/S477D/S483D/S484D/S487D)
Chain of UniProt Q92985 (whole entry, unmodified, looked up): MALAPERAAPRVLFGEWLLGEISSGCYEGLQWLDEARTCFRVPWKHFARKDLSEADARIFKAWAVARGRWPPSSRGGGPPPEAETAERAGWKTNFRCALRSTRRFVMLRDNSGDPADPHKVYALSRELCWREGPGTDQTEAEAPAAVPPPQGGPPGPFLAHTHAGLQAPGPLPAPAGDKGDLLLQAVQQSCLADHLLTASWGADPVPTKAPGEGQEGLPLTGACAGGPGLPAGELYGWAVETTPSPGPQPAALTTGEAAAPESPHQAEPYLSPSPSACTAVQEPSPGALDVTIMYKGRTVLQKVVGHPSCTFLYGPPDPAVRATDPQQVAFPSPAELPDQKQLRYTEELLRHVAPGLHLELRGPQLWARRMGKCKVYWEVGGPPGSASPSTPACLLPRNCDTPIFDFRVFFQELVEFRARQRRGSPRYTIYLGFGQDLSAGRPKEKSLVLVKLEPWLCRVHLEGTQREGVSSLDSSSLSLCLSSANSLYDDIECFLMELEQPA
Technique: protein-binding microarray
Form: double-stranded DNA, one strand shown
Matrix: in vitro
Concentration: 2200 nM top
Notes: 60-bp whole probe
Together with: salmon DNA 0.4 mg/ml
Baseline: random background probes
Direction: higher = stronger binding
Shared flanks, not repeated: GCCTAGCAC … GTCTTGATTCGCTTGACGCTGCTG
Strand	fitted relative affinity [z-score]
TTACGTCTCCTTCTCCTTTAGTGCTAG	2.58
GACGATTTCAGTATGGAGACGTGCTAG	0.637
TTAGGTTTCGGTATCGGTGAGTGCTAG	7.66
GACGGTTCCGGTTTCGGGTCGTGCTAG	8.59
TGAGGTCTCGGTATCGGTTAGTGCTAG	0.376
CTAATTTTCATTTTCCAAATGTGCTAG	6.93
TCAAGTTTTCCTTCATGACTGTGCTAG	2.09
TTAGGTATCGGTTTCGGTCAGTGCTAG	4.56
TTAGATTTCAGTCTCGAATAGTGCTAG	0.566
TTAGGTTTCGGTTCCTGTTAGTGCTAG	11.5
AACAATATATATATTATATAGTGCTAG	-0.228
GACGATATCAGTCTCGAGGCGTGCTAG	0.101
GACGGTATCCTTATCCTTACGTGCTAG	1.17
GACGGACTGATTTTCCTGACGTGCTAG	0.396
GACGGTCTCGGATTCGGGACGTGCTAG	0.654
GACGATATCAGACTGAAGACGTGCTAG	-0.145
GACGAATTGGGGTTTCGAGACGTGCTA	1.72
CTTGGCAAGATGAGGAAGATGTGCTAG	-0.822

Study 6
Target: Protein max, full length (MAX, Homo sapiens, UniProt P61244-2, residues 1-151)
Technique: protein-binding microarray
Form: double-stranded DNA, one strand shown
Matrix: in vitro
Concentration: not given
Notes: k-mer, scored over probes, only values ≥0.25
Direction: higher = stronger binding
Strand	E-score
ACATCGTG	0.365
CTCCACGA	0.266
GGTGACAC	0.265
CGTGTTGC	0.355
CTCGTGTA	0.435
ACATGGTG	0.363
CATGTTAG	0.332
CCACACGA	0.295
CGTGTCCC	0.371
GAGCACAC	0.348
CCCGTCCC	0.26
CATGAGAC	0.292
CACCATGC	0.415

Study 7
Target: Centromere-binding protein 1, full length, His-tagged (CBF1, Saccharomyces cerevisiae, UniProt P17106, residues 1-351)
Chain of UniProt P17106 (whole entry, looked up): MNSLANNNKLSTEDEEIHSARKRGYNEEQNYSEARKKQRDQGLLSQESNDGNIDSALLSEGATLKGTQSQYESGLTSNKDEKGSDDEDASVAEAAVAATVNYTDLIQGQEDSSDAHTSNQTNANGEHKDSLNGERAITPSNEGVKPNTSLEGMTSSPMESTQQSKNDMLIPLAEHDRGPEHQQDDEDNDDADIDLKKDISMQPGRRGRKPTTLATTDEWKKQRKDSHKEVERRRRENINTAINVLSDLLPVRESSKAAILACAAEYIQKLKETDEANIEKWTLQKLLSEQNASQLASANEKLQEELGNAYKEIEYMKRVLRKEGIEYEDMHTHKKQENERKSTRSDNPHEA
Technique: competition protein-binding microarray
Form: double-stranded DNA, one strand shown
Matrix: in vitro
Concentration: 2 µM
Notes: whole 60-bp probe, lowest competitor level
Together with: Pho4 competitor, 0.05 µM
Direction: higher = stronger binding
Shared flanks, not repeated: … GTCTTGATTCGCTTGACGCTGCTG
Strand	fluorescence intensity [a.u.]
TCTTGGTTCCAAAGCAGCGTGTTGAAGAGAGGAACC	66.4
CTAACGAAGGTTTGTCACTTCACTTACAAGCCAAGT	74.4
TTGTCGGCATAACCGCACATGGACGTCTATATGACC	77.9
GCGCTACCGTTGCGCCACGAGGCCTGTCCAACAGCG	61.9
CTTTCCCGATCTTGTCACATTACTTTAGCACATTTG	125
GAGTGTTGTTGGGCGCACATGTCGATTTCATAATAG	143
GCCTCCTTAGATTGCCCCGTGCCAGCAATGGTCATT	112
CGGGGTTAAGTTTGAGAGGTGGGTGGCTTGCAGCAG	79.3
TCAAAGAGTTGAGCGAACGTGACTCCTGGGCTGGCC	239
TTCAAGCTAAATGAAAATGATTTAAAGACATATAAT	94.1
AATTTCAACGACAGGTTCGTGCTTTTCACCTTCACC	67.4
GAGCCGTCCCGCAATCACCTGTAATGGCCAGTTCCC	65.4
CATCTTATTTACGAACTCGTGATGGTTTTGTAAAAT	624
AGGTTTCGCCATAGCCATGTGCCTATATTAAATAGA	161
GGATGGGACACCAACAACGTGCAAAACACCGAAGTG	128
GGAGGCTTTGCGTCCCACGTGAGGCTTCATGAACAA	1310
CGGGGTTAAGTTTGTCACGTGTTTTGCTTGCAGCAG	5840
